Results of several laboratories.
Cell line: HOP-62

The TGI of Cn1cncc1C1=CN(c2ncnc3[nH]cnc23)CCS1 is reported as 120 µM (lung cancer).
With Cc1n[nH]c2nc(-c3ccc(Cl)cc3)c3c(NC(=O)c4ccccc4)nnc-3n12 the cell growth was 101% (SRB; 10 µM, NCI60 single-dose screen; relative to: untreated).
CCCCCCCCCCCCCCCCCCOc1ccc(CC(=O)OCC[N+]2(C)CCCC2)cc1 has a growth inhibition of less than 0% (SRB; 10 µM).
O=c1ccn(Cc2cn(-c3cc4ccccc4oc3=O)nn2)c(=O)[nH]1 has a growth percentage of 84.4% (NCI60 single-dose screen; 10 µM).
CCCN1CCN(c2ccc3nc(-c4ccc5nc(-c6cc(OC)ccc6OC)[nH]c5c4)[nH]c3c2)CC1 has a growth percent of 117% (SRB; 10 µM, 48 h).
Cc1cc(=O)[nH]c(=O)n1Cc1cn(-c2c3ccccc3nc3ccccc23)nn1 has a growth percentage of 95.6% (NCI60 single-dose screen; 10 µM).
CSc1nc(-c2ccc(Cl)cc2)c2c(NC(=O)c3ccccc3)nnc-2[nH]1 gave a cell growth of 81.2% (SRB; 10 µM, NCI60 single-dose screen; relative to: untreated).
CCCN1CCN(c2ccc3[nH]c(-c4ccc5[nH]c(-c6cc(OC)c(OC)c(OC)c6)nc5c4)nc3c2)CC1 gave a growth percent of 84.3% (SRB; 10 µM, 48 h).
With Cc1cc2c(cc1C)[n+](Cc1ccc3ccccc3c1)cn2Cc1ccc2ccccc2c1.[Br-] the TGI was 2.47 µM (NCI60 five-dose screen).
For CCCCN1CCN(c2ccc3[nH]c(-c4ccc5[nH]c(-c6ccc(C(F)(F)F)cc6)nc5c4)nc3c2)CC1, the growth percent was -78.5% (SRB; 10 µM, 48 h).
The TGI of C#C[C@@]1(O)[C@@H](CO)O[C@@H](n2cc(F)c3c(N)ncnc32)[C@@H]1O is reported as 7.79 µM (SRB; NCI-60 screen).
For S=C([S][Au-][P+](CCCCCC[P+]([Au-][S]C(=S)n1cccn1)(c1ccccc1)c1ccccc1)(c1ccccc1)c1ccccc1)n1cccn1, the log10 TGI was -4.37 (cell growth, NCI-60 screen; non-small cell lung cancer).
For CN1CCN(c2ccc3[nH]c(-c4ccc5[nH]c(-c6ccc(C(F)(F)F)cc6)nc5c4)nc3c2)CC1, the growth percent was 51.3% (SRB; 10 µM, 48 h).
For NNc1nc(-c2ccc(Cl)cc2)c2c(NC(=O)c3ccccc3)nnc-2[nH]1, the cell growth was 95.5% (SRB; 10 µM, NCI60 single-dose screen; relative to: untreated).
With CCCC(CCC)C(=O)OCc1cn(-c2c3ccccc3nc3ccccc23)nn1 the growth percentage was 98.4% (NCI60 single-dose screen; 10 µM).
The TGI of COCCOCCOCc1n(Cc2ccc3ccccc3n2)c2ccccc2[n+]1Cc1ccc2ccccc2c1.[Br-] is reported as 2.52 µM (NCI60 five-dose screen).
The cell growth of O=C(Nc1nnc2n3c(nc(-c4ccc(Cl)cc4)c1-2)SCC3=O)c1ccccc1 is reported as 85.5% (SRB; 10 µM, NCI60 single-dose screen; relative to: untreated).
